Measurements of several laboratories.
Compare with care: the assays were run in different laboratories. Several values in a cell are separate wells, animals, samples, runs or records.
Target: Ephrin type-A receptor 4 (EPHA4, Homo sapiens, UniProt P54764)
Sequence of UniProt P54764 (whole entry, unmodified, looked up): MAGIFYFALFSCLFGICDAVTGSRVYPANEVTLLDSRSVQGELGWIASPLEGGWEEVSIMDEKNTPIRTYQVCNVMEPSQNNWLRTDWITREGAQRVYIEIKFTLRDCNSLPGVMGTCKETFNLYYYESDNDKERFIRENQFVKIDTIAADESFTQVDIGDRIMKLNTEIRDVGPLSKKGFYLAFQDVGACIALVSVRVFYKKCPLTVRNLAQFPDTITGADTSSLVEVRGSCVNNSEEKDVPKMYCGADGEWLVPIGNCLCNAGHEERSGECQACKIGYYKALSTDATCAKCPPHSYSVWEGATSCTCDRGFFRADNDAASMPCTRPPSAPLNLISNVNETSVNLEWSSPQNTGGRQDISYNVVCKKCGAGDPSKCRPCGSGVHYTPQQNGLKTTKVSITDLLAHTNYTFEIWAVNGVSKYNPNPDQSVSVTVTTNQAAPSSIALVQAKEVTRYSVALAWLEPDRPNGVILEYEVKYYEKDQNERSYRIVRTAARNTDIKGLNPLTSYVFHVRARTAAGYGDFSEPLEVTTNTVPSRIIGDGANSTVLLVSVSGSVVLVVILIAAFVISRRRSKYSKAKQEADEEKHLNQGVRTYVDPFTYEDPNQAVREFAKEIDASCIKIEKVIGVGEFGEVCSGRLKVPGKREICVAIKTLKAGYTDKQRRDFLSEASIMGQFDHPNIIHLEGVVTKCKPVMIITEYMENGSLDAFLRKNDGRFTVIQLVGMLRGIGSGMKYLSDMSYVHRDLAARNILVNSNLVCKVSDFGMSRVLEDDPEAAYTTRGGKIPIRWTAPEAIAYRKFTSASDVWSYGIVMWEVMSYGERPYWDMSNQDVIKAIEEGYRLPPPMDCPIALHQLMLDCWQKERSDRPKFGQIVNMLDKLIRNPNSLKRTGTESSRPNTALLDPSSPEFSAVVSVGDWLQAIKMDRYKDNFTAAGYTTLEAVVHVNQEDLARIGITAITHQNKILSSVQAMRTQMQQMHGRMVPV

`CNC(=O)C[C@H](Cc1ccc(C#N)cc1)NC(=O)c1cc(-c2ccc(CN[C@H](C)c3ccc(C)cc3)o2)ccc1Cl` — result for “activity vs control”: 109% (enzyme activity, inhibitor; 1 µM).
`Cc1cccc(O[C@H]2CCC[C@@H](C(C)CNCc3ccncc3)C2)c1` (relative stereo) gave an inhibition of -1% (cell-free assay; 1 µM).
The remaining activity of `COc1cc(Nc2nc(C)cc(-c3cnn4nc(OC)ccc34)n2)cc(C(F)(F)F)c1` is reported as 100% (inhibitor; 1 µM; baseline: control).
`NC(=O)[C@@H](O)C[C@H]1CCc2sc3ncnc(O[C@H]4CC[C@H](N5CCOCC5)CC4)c3c21` gave an inhibition of 14% (enzyme activity, inhibitor; 10 µM).
`CNC1C[S+]2CC[S+]3CC[S+](C1)[Ru-4]321([N]=C=S)[n]2c3ccc(OC)cc3c3c4c(c5cc(F)c[n+]1c5c32)C(=O)NC4=O` (stereo not shown) gave a remaining binding of 96% (KinomeScan; 0.1 µM; baseline: untreated).
`Cc1nc2c(F)cc(-c3nc(Nc4ccc(CNC(=O)CCCCCCC(=O)NO)cc4)ncc3F)cc2n1C(C)C` has an inhibition of 39% (enzyme activity, inhibitor; 1 µM).
`CCn1cc(C(=O)O)c(=O)c2c(N)c(F)c(NC3CCCCC3)cc21` has an inhibition of 14% (kinase activity; 0.1 µM, added: ATP at Km).
`C=CC(=O)Nc1cccc(-c2cnc3[nH]cc(C(=O)NC(C)(C)C)c3n2)c1` gave an inhibition of 2% (enzyme activity, inhibitor; 0.1 µM).
Under “activity vs control”, `O=C(Cc1ccc(OCc2ccccc2)cc1)NC1(C(=O)O)CCN(C(=O)c2ccc(-c3cccc(Cl)c3)cc2)CC1` is recorded as 116% (enzyme activity, inhibitor; 10 µM).
With `COCC12C(=O)NC3C4(C(OC)CC1O)C1CC5(O)C(OC)C(O)C(OC(C)=O)(C1C5OC(=O)c1ccccc1)C3(O)C(OC)C24` (stereo not shown) the remaining activity was 92% and 103% (kinase activity, inhibitor, ProQinase kinase profiling; 25 µM; baseline: control).
`COc1c(OCCCN2CCOCC2)ccc2c1N=C(NC(=O)c1cnc(N)nc1)N1CCN=C21` gave a remaining activity of 119% (kinase activity, inhibitor; 1 µM; baseline: untreated control).
For `CCN1CCN(Cc2ccc(C(=O)Nc3ccc(C)c(NCc4cnc5[nH]ccc5c4OC)c3)cc2C(F)(F)F)CC1`, the remaining binding was 10% (binding, competition with immobilised ligand; 1 µM).
`CN1CCN(Cc2ccc(-c3ccc(CO[C@H]4CCC[C@@H]4NC(=O)c4cc(-c5cnn(C)c5)cnc4N)cc3)cc2)CC1` gave an inhibition of 11% (enzyme activity, inhibitor; 0.1 µM).
`CC(C)=CC1OC(C)(C)C2C=C3C(=O)C(Cl)=CC(O)C3C3C(O)C4OC4C(=O)C132` (stereo not shown) gave a remaining binding of 90% (cell-free assay, competition with immobilised ligand; 10 µM).
`Nc1ncc(-c2cc(-c3cnn(CC(F)(F)F)c3)ncc2F)nc1C(=O)NC1CNCC(F)C1` (stereo not shown) has a remaining activity of 99% (enzyme activity; 1 µM; baseline: DMSO control).
With `Cc1ccc(-c2c(/C=C(\C#N)C(=O)NC(C)C)n(CCCO)c3ncnc(N)c23)cc1` the remaining binding was 85% (cell-free assay, competition with immobilised ligand; 1 µM).
